Measured values of several laboratories.
Compare with care: the assays were run in different laboratories. ± gives the spread as reported.

| Compound | cell line | assay | system | conditions | scale | measurement | value |
| --- | --- | --- | --- | --- | --- | --- | --- |
| CC(C)(C)NCc1ccc(Nc2ccnc3cc(Cl)ccc23)cc1O | 293T-ACE2 | – | – | 40 (unit not given) | – | CC50 | > 2.5 µM |
| O=c1nc(NO)ccn1[C@@H]1O[C@H](CO)[C@@H](O)[C@H]1O | human PBM cells | cytotoxicity | – | – | – | CC50 | 45.7 ± 3.1 µM |
| Oc1ccc(C2(c3ccc(O)cc3)c3ccccc3-c3ccccc32)cc1 | HepG2 spheroids, dissociated | annexin V-FITC/PI flow cytometry | – | 0.1 µM, 24 h | – | viable cells | 67.9 ± 10.7% |
| O=c1ccc2ccccc2o1 | NHEK | cell count | – | concentration not given, 24 h, phospholipidosis and steatosis panel | – | chance response | 0.45% |
| Cc1cc(C)c(/C=C/c2nc(N)[nH]c(=O)c2Br)c(C)c1 | HEL human embryonic lung fibroblasts | cell morphology alteration | – | – | – | minimum cytotoxic concentration | 100 µM |
| CN(C)c1ccc(C(Nc2nc3c(-c4ccc([N+](=O)[O-])cc4)nn(-c4ccccc4)c3s2)P(=O)(Oc2ccccc2)Oc2ccccc2)cc1 (stereo not shown) | Vero cells | SRB | – | 1 µM, 10% fetal bovine serum | – | viability | 97.3% |
| CC(C)(c1ccc(O)cc1)c1ccc(O)cc1 | HepG2 spheroids | annexin V-FITC/PI flow cytometry | – | 1 µM, 96 h | – | necrotic cells | 43.3 ± 6.35% |
| CC(C)C[C@H](NC(=O)OCc1ccccc1)C(=O)N[C@H](C=O)C[C@@H]1CCCNC1=O | MRC5 | cytotoxicity | – | – | – | CC50 | > 100 µM |
| Cc1cc(C(C)(C)c2ccc(O)c(C)c2)ccc1O | HepG2 spheroids, dissociated | annexin V-FITC/PI flow cytometry | – | 1 µM, 96 h | – | early apoptotic cells | 3.38 ± 1.81% |
| Fc1ccc(-c2ccc(CN3CCN(c4cccc5ccoc45)CC3)[nH]2)cc1 | 293T-ACE2 | – | – | 40 (unit not given) | – | CC50 | 0.17 µM |
| O=S(=O)(O)C(F)(F)C(F)(F)C(F)(F)C(F)(F)C(F)(F)C(F)(F)C(F)(F)C(F)(F)F | hTERT-RPTEC parental | LDH release | culture medium | concentration not given, 24 h, 96-well plate | – | LDH activity in medium | 24.7 mU/mL |
| Fc1ccc(Oc2ccnc3cc(Cl)cc(Cl)c23)cc1 | HEK293-H PPARγ-UAS-bla cells | cell viability, IncuCyte imaging | – | 24 h, freely dissolved concentration | – | IC10 | 0.177 µM |
| N=C(N)NCCC[C@H](NC(=O)CN)C(=O)N[C@@H](Cc1c[nH]c2ccccc12)C(=O)N[C@@H](CCCNC(=N)N)C(=O)N[C@@H](Cc1c[nH]c2ccccc12)C(=O)N[C@@H](Cc1c[nH]c2ccccc12)C(=O)N[C@@H](Cc1c[nH]c2ccccc12)C(=O)N[C@@H](CCCNC(=N)N)C(=O)N[C@@H](Cc1c[nH]c2ccccc12)C(=O)N[C@@H](CCCNC(=N)N)C(=O)N[C@@H](Cc1ccccc1)C(N)=O | HD11 macrophages | – | – | – | – | LC50 | > 512 µM |
| COC(=O)/C(C)=C\C[C@@]12OC(C)(C)[C@@H]3C[C@@H](C=C4C(=O)c5c(O)c6c(c(CC=C(C)C)c5O[C@]431)O[C@](C)(CCC=C(C)C)C=C6)C2=O | MYBPC3 iPSC cardiomyocytes | cytotoxicity | – | 24 h | – | EC50 | 15.7 µM |
| CC[C@H](C)CCCCC(=O)N[C@@H](CCN)C(=O)N[C@H](C(=O)N[C@@H](CCN)C(=O)N[C@H]1CCNC(=O)[C@H]([C@@H](C)O)NC(=O)[C@H](CCN)NC(=O)[C@H](CCN)NC(=O)[C@H](CC(C)C)NC(=O)[C@@H](Cc2ccccc2)NC(=O)[C@H](CCN)NC1=O)[C@@H](C)O | human erythrocytes | hemolysis | – | pH 7.2 | reference: water complete hemolysis | HD50 | 350 µg/mL |
| N=C(N)NCCC[C@H](NC(=O)[C@H](Cc1c[nH]c2ccccc12)NC(=O)[C@H](CCCNC(=N)N)NC(=O)[C@H](Cc1c[nH]c2ccccc12)NC(=O)[C@H](Cc1c[nH]c2ccccc12)NC(=O)[C@H](Cc1c[nH]c2ccccc12)NC(=O)[C@H](CCCNC(=N)N)NC(=O)[C@H](Cc1c[nH]c2ccccc12)NC(=O)[C@@H](N)CCCNC(=N)N)C(=O)N[C@@H](Cc1c[nH]c2ccccc12)C(N)=O | HD11 macrophages | – | – | – | – | LC50 | 477 µM |
| CC[C@H](C)[C@H](NC(=O)[C@@H](N)CC(N)=O)C(=O)N1CCC[C@H]1C(=O)N1CCC[C@H]1C(=O)N[C@@H](CC(C)C)C(=O)N[C@H](C(=O)N[C@@H](CCC(N)=O)C(=O)N[C@H](C(=O)N1CCC[C@H]1C(=O)N[C@H](C(=O)N[C@H](C(=O)N[C@H](C(=O)N1CCC[C@H]1C(=O)N1CCC[C@H]1C(=O)N[C@@H](Cc1ccccc1)C(=O)N[C@@H](CC(C)C)C(=O)N[C@@H](CCC(N)=O)C(=O)N1CCC[C@H]1C(=O)N[C@@H](CCC(=O)O)C(=O)O)C(C)C)C(C)C)C(C)C)[C@@H](C)O)[C@@H](C)O | Caco-2 monolayers | – | – | 10 µM, 15 min, 37 °C | – | transport | 0.05 ± 0.03% |
| CC(C)[C@H](NC(=O)[C@H](CCCNC(=N)N)NC(=O)[C@H](Cc1c[nH]c2ccccc12)NC(=O)[C@H](CCCNC(=N)N)NC(=O)[C@H](Cc1c[nH]c2ccccc12)NC(=O)[C@H](Cc1c[nH]c2ccccc12)NC(=O)[C@H](Cc1c[nH]c2ccccc12)NC(=O)[C@H](CCCNC(=N)N)NC(=O)[C@H](Cc1c[nH]c2ccccc12)NC(=O)[C@@H](N)CCCNC(=N)N)C(N)=O | HD11 macrophages | – | – | – | – | LC50 | > 512 µM |
| Cc1cc(O)ccc1Cl | SH-SY5Y | cell viability, propidium iodide staining | – | 24 h, freely dissolved concentration | – | IC10 | 367 µM |
| CCCCCc1nc(N)[nH]c(=O)c1Br | HEL human embryonic lung fibroblasts | cell morphology alteration | – | – | – | minimum cytotoxic concentration | > 100 µM |
| N=C(N)NCCC[C@H](NC(=O)[C@H](CCCNC(=N)N)NC(=O)[C@H](CCCCN)NC(=O)[C@H](CCCNC(=N)N)NC(=O)[C@H](Cc1ccccc1)NC(=O)[C@H](Cc1ccc(O)cc1)NC(=O)[C@H](CCCNC(=N)N)NC(=O)[C@H](CCCNC(=N)N)NC(=O)[C@H](CCCNC(=N)N)NC(=O)[C@H](CCCNC(=N)N)NC(=O)[C@H](CCCNC(=N)N)NC(=O)[C@H](Cc1ccc(O)cc1)NC(=O)[C@H](CCCNC(=N)N)NC(=O)[C@@H](N)CCCNC(=N)N)C(=O)O | DF-1 | LDH release | – | 3 µM, 1 h | – | viability | 99.3 ± 2.91% |
| O=C(O)C(F)(F)C(F)(F)C(F)(F)C(F)(F)C(F)(F)C(F)(F)C(F)(F)C(F)(F)C(F)(F)C(F)(F)F | hTERT-RPTEC parental | LDH release | culture medium | concentration not given, 24 h, 96-well plate | – | LDH activity in medium | 24.3 mU/mL |
| N=C(N)NCCC[C@H](NC(=O)[C@H](CCCNC(=N)N)NC(=O)[C@H](CCCNC(=N)N)NC(=O)[C@H](CCC(N)=O)NC(=O)[C@H](CCCNC(=N)N)NC(=O)[C@H](CCCNC(=N)N)NC(=O)[C@H](CCCCN)NC(=O)[C@H](CCCCN)NC(=O)[C@H](CCCNC(=N)N)NC(=O)CNC(=O)[C@@H](N)Cc1ccc(O)cc1)C(=O)O | DF-1 | LDH release | – | 25 µM, 1 h | – | viability | 97.7 ± 9.14% |
| CC(c1ccccc1)(c1ccc(O)cc1)c1ccc(O)cc1 | HepG2 spheroids, dissociated | annexin V-FITC/PI flow cytometry | – | 1 µM, 96 h | – | viable cells | 41 ± 7.61% |
| CC(C)(Oc1ccc(Cl)cc1)C(=O)O | HEK293-H PPARγ-UAS-bla cells | cell confluency, IncuCyte imaging | – | 24 h, nominal concentration | – | IC10 | 1410 µM |
| N#C[C@@]1(n2ccc(N)nc2=O)O[C@H](CO)[C@@H](O)[C@H]1O | CHO | – | – | 500 µM, with S9 | – | micronucleated cells | 0.3% |
| Nc1cnn(-c2ccccc2)c(=O)c1Cl | HEK293-H PPARγ-UAS-bla cells | cell confluency, IncuCyte imaging | – | 24 h, nominal concentration | – | IC10 | 830 µM |
| COc1cc2c(c(OC)c1OC)-c1ccc(OC)c(=O)cc1[C@@H](NC(C)=O)CC2 | CHO-WBL | – | – | 0.16 µg/mL, 19 h, without S9 | – | binucleated cells with micronuclei | 5.8% |

Some of these lines once more:
| Compound | cell line | assay | system | conditions | scale | measurement | value |
| --- | --- | --- | --- | --- | --- | --- | --- |
| Cc1cc(C(C)(C)c2ccc(O)c(C)c2)ccc1O | HepG2 spheroids, dissociated | annexin V-FITC/PI flow cytometry | – | 1 µM, 96 h | – | early apoptotic cells | 3.38 ± 1.81% |
| COC(=O)/C(C)=C\C[C@@]12OC(C)(C)[C@@H]3C[C@@H](C=C4C(=O)c5c(O)c6c(c(CC=C(C)C)c5O[C@]431)O[C@](C)(CCC=C(C)C)C=C6)C2=O | MYBPC3 iPSC cardiomyocytes | cytotoxicity | – | 24 h | – | EC50 | 15.7 µM |
